Results from different studies.
Cell line: SW-620

CCN(C(=O)c1cc(F)ccc1Oc1nncnc1N1CCC2(C1)CN([C@H](CCCN(C)CCOC)C(C)C)C2)C(C)C  GI50 (cell growth or viability; 7 days): > 10000 nM
CCCC(CCC)C(=O)OCc1cn(-c2cc3ccccc3oc2=O)nn1  growth percentage (NCI60 single-dose screen; 10 µM): 94.1%
[BH3-][P+]1(c2ccccc2)CCC(=O)CC1  selectivity index (MTT; 72 h; baseline: IC50 HaCaT over IC50 SW-620): 1
O=C(Nc1nnc2c1c(-c1ccc(Cl)cc1)nc1sc(=Cc3ccco3)c(=O)n12)c1ccccc1 (mixture of isomers)  cell growth (SRB; 10 µM, NCI60 single-dose screen, colon cancer; baseline: untreated): 48.9%
[BH3-][P+]1(c2ccccc2)CCCCC1  necrotic cells (annexin V/PI flow cytometry; IC50, 72 h): 0.35%
Cc1ccc([N+](=O)[O-])cc1S(=O)(=O)N(C)/N=C/c1cnc2ccc(Br)cn12  IC50 (cell viability, MTS): 74 nM
CN(C)CCN1CCN(c2ccc3nc(-c4ccc5nc(-c6ccc(C(F)(F)F)cc6)[nH]c5c4)[nH]c3c2)CC1  growth percent (SRB; 10 µM, 48 h): 27%
C/C(=N\Nc1ncnc2sc3c(c12)CCCC3)c1cc(O)ccc1O  colony formation (7 d): decreased
CCOc1cncc(-c2ccc(NC(=O)C3(c4ccnc(NS(=O)(=O)C5CC5)n4)CCOCC3)nc2)n1  IC50 (cell growth or viability, ATP luminescence; 72 h): 122 nM
O=C1CCP(=O)(c2ccccc2)CC1  IC50 (cell growth or viability, MTT; 72 h): > 100000 nM
CNS(=O)(=O)Nc1nccc(Cc2c(C)c3ccc(Oc4ncccc4F)cc3oc2=O)c1F  IC50 (cell viability; 7 days): 1.64 nM
CC(C)c1ccc(N(C)c2ccc3c(c2)OCC[C@H]3CNc2cnccc2C(=O)O)cc1  IC50 (cell viability, CellTiter-Glo; 7 days): 29.3 nM
C1=[N+]2CCCC[N+]3=Cc4ccc5[n]4[Au-]23[n]2c1ccc2-c1nc2ccccc2nc1-5.F[P-](F)(F)(F)(F)F  TGI (NCI60 five-dose screen): 5.31 -log M

A few entries again:
[BH3-][P+]1(c2ccccc2)CCCCC1  necrotic cells (annexin V/PI flow cytometry; IC50, 72 h): 0.35%
Cc1ccc([N+](=O)[O-])cc1S(=O)(=O)N(C)/N=C/c1cnc2ccc(Br)cn12  IC50 (cell viability, MTS): 74 nM
